Results from different studies.
Every numbered part comes from another study and shows a few of its results, in no order.

Sample 1
Target: RNA binding protein fox-1 homolog 2, RRM domain, GST-SBP tag (RBFOX2, Homo sapiens, UniProt O43251-10, residues 100-194)
Method: RNA Bind-n-Seq
Molecule type: RNA
Medium: in vitro
Tested at: 365 nM
Notes: natural RNA segment, single round, ends assumed
Baseline: no-protein control
Reading: higher = stronger binding
Measurement: RBNS enrichment (R)
GGGAGUUCUACAGUCCGACGAUCGCCAUUCCAUUCCCAGGGAGUGAGAAGUAUUGUGGGUAGAGUUGCCAAAGAUGGCUGGACCAUGGAAGAGAGUACCCUAUGAUGGGUUUCAACCUUGACUCGUAAAUACUUGGAAUUCUCGGGUGCCAA: 0.412
GGGAGUUCUACAGUCCGACGAUCUAUUUUUUGUAUUAGUAUGGUUUGAGACAACAUAUGGAAAAUGUUCACAUUUGUAGAUUAAGCUGGAAUUAUAAUGAGAGCAAUAAGAACAAAUUUAUUUUGCUUACCACUGGAAUUCUCGGGUGCCAA: 1.25
GGGAGUUCUACAGUCCGACGAUCGAACUGGAGGUGCCUGUGCACACUGGACCCAACAGUCAAAAGACUGCUGACUUGACACGUGACAGUGAAGUAAUGGAAGUGGCCAGAUGUCAGGAAACUGAGAGUAAUGAUGGAAUUCUCGGGUGCCAA: 0.654
GGGAGUUCUACAGUCCGACGAUCUUUUAUGUUGAGCCAAGAGAGAAUAUGUUGCACUUUAAACACGCUGUGUCCUGCUCCCUUUGAGUGUAGAUAUCUUCAAGUUGAAGCCAAUUAUAAGUGUAGCCAUUUUUUGGAAUUCUCGGGUGCCAA: 0.525

Sample 2
Target: Interferon regulatory factor 5, full length, phosphomimetic (IRF5, Homo sapiens, UniProt Q13568-2, residues 1-514, S451D/S453D/S456D/S462D)
Method: protein-binding microarray
Molecule type: double-stranded DNA, one strand shown
Medium: in vitro
Tested at: 940 nM top
Notes: 60-bp whole probe
Added: salmon DNA 0.4 mg/ml
Baseline: random background probes
Reading: higher = stronger binding
Measurement: fitted relative affinity
Constant ends, left off below: GCCTAGCAC … GTCTTGATTCGCTTGACGCTGCTG
TTAGGATTCCTTATCCTTTAGTGCTAG: -0.0792 z-score
TTAGAACTGGGGGCTGGATTAGTGCTA: 1.48 z-score
TGAGGTTTCGACTATCGGTTAGTGCTA: 6.94 z-score
TTAGGTCTGGGACTGGGTTAGTGCTAG: -0.594 z-score
GACGGACTGGGGTCTCGGGACGTGCTA: -0.164 z-score
TTAGGTATTGGTTTCGGTTAGTGCTAG: 10.9 z-score

Sample 3
Target: Histone acetyltransferase KAT6A, both winged helices, GST fusion (KAT6A, Homo sapiens, UniProt Q92794, residues 1-181)
Method: protein binding microarray
Molecule type: double-stranded DNA, one strand shown
Medium: in vitro
Tested at: not given
Notes: 8-mer, flanks averaged, mean of 2 arrays, mostly near background
Baseline: not given
Reading: higher = stronger binding
Measurement: E-score
Residues (chain): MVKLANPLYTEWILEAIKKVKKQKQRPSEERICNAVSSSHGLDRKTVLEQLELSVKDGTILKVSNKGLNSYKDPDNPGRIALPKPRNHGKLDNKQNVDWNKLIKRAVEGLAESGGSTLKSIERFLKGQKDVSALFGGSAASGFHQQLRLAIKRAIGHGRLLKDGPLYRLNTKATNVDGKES
ATCTGTGC: -0.0724
GCGCCAGC: 0.152
GCTCGCTA: 0.029
CATATTAC: 0.0528
CTCGGATC: 0.0149
CTAAGGAG: -0.201

Single results of other studies
PhoQ, residues 284 288 289 292 302 303 ALVSVA  fold induction (PhoP, residues 12 14 15 18 19 SQCLL (Escherichia coli, UniProt P23836); Sort-seq, refers to: YFP reporter; E. coli; PhoQ-PhoP variant library, added: 10 µM Mg2+; baseline: high Mg2+ state, higher = stronger signaling): 14.6

Excerpt of the above (sample 3):
CATATTAC: 0.0528
GCGCCAGC: 0.152
